Results pooled from the literature.
Numbered parts are unrelated; each lists some results of a single study.

Sample 1
Cell line: HEK-293T
Read-out: pseudovirus infection
Method: FDA-approved drug library screen
Organism: VSV pseudotyped with SARS-CoV-2 spike
Concentration: 10 µM
Time: 16 h
Baseline: vehicle-treated
Structure (SMILES)	GFP-positive cells
CCCCC(=O)O[C@]1(C(=O)CO)CC[C@H]2[C@@H]3CCC4=CC(=O)CC[C@]4(C)[C@H]3[C@@H](O)C[C@@]21C	109%
CCc1nc(N)nc(N)c1-c1ccc(Cl)cc1	57.4%
CCOC(=O)CCC(=O)O[C@H]1[C@H](O[C@@H]2[C@@H](C)[C@H](O[C@H]3C[C@@](C)(OC)[C@@H](O)[C@H](C)O3)[C@@H](C)C(=O)O[C@H](CC)[C@@](C)(O)[C@H](O)[C@@H](C)C(=O)[C@H](C)C[C@@]2(C)O)O[C@H](C)C[C@@H]1N(C)C	106%
CC(=O)OCC(=O)[C@@]1(O)CC[C@H]2[C@@H]3CCC4=CC(=O)CC[C@]4(C)[C@H]3[C@@H](O)C[C@@]21C	92.8%
CC(=O)[C@H]1CC[C@H]2[C@@H]3C[C@H](C)C4=CC(=O)CC[C@]4(C)[C@H]3[C@@H](O)C[C@]12C	109%
COc1ccccc1OCC(O)CN1CCN(CC(=O)Nc2c(C)cccc2C)CC1 (stereo not drawn)	88.5%

Sample 2
Target: Histone acetyltransferase KAT6A, winged helix 1, GST fusion (KAT6A, Homo sapiens, UniProt Q92794, residues 1-85)
Method: protein binding microarray
Form: double-stranded DNA, one strand shown
Sample: in vitro
Concentration: not given
Notes: 8-mer, flanks averaged, mean of 2 arrays, mostly near background
Baseline: not given
Direction: higher = stronger binding
Residues (chain): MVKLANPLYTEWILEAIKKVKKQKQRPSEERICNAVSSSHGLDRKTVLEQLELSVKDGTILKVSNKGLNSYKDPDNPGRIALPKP
Strand	E-score
AAGTAACT	-0.027
CTGTCTGA	-0.056
ACCGTCCC	0.178
ACGACTCT	-0.236
AACGGTCA	0.205
AATACTAA	-0.0179
CTAGGTCA	-0.166
CTGGCAGC	-0.0391

Sample 3
Target: Replicase polyprotein 1ab, main protease (rep, Severe acute respiratory syndrome coronavirus 2, UniProt P0DTD1)
Read-out: enzyme activity
Mode: inhibitor
Concentration: 20 µM
Notes: primary screen
Compound	inhibition [%]
CCOC(=O)C1=C(N)Oc2ccc(Br)cc2C1C(C#N)C(=O)OCC (stereo not drawn)	31.8
COC(=O)/C=C/c1cc(O)ccc1O	68.6
N[C@@H](Cc1ccc(O)c(O)c1)C(=O)O	33.4
NCc1ccccc1CC(=O)N[C@@H]1C(=O)N2C(C(=O)O)=C(CSc3nnnn3CC(=O)O)CS[C@H]12	40.2

Sample 4
Target: Interferon regulatory factor 7, full length, phosphomimetic (IRF7, Homo sapiens, UniProt Q92985, residues 1-503, S471D/S472D/S475D/S476D/S477D/S483D/S484D/S487D)
Method: protein-binding microarray
Form: double-stranded DNA, one strand shown
Sample: in vitro
Concentration: 2200 nM top
Notes: 60-bp whole probe
Together with: salmon DNA 0.4 mg/ml
Baseline: random background probes
Direction: higher = stronger binding
All sequences stand within: GCCTAGCAC … GTCTTGATTCGCTTGACGCTGCTG
Target sequence (chain): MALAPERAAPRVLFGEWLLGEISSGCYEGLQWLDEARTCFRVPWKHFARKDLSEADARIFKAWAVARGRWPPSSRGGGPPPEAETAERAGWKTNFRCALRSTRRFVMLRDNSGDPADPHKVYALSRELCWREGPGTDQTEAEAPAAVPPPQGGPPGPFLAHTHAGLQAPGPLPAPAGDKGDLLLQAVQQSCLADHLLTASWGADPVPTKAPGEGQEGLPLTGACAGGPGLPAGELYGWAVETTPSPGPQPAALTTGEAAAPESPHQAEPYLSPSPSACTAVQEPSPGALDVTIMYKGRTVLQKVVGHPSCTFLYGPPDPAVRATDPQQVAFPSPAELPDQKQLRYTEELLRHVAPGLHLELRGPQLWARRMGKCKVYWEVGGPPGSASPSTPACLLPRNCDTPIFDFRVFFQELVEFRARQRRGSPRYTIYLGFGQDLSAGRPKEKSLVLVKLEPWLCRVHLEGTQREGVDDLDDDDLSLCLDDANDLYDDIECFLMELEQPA
Strand	fitted relative affinity [z-score]
GACGGTTTCGACTATCGGGACGTGCTA	3.49
TCATCTCTCTTAAATAGGACTGTGCTA	0.632
GACGAACTGGGCTTTCGAGACGTGCTA	0.942
TTAGAACTGTGACTGGATTAGTGCTAG	-0.151
TTAGTACTGGGGTATCGATTAGTGCTA	0.228
TCATTTATGTACTCTCTCACTGTGCTA	1.72
GACGATATCAGTATCTAGACGTGCTAG	0.292
TCACTCTGCTCTTTTCAAACTGTGCTA	1.76

Sample 5
Target: Replicase polyprotein 1ab, polymerase (rep, Severe acute respiratory syndrome coronavirus 2, UniProt P0DTD1)
Read-out: enzyme activity
Mode: inhibitor
Concentration: 20 µM
Structure (SMILES)	inhibition
CC[N+](CC)(CC)CCOc1ccc(/C=C/c2ccccc2)cc1	-0.63%
C[C@]12CCC(=O)C=C1C=C[C@@H]1[C@@H]2CC[C@@]2(C)[C@H]1CC[C@@]21CCC(=O)O1	-0.6%
Cc1cn2nc([C@@H]3CCCCN3C(=O)c3cc(Cl)ccc3NS(C)(=O)=O)cc2nc1N1CC[C@H](N)C1	-3.56%
O=C(O)Cn1c(C(=O)Nc2nc(-c3ccccc3Cl)cs2)cc2ccccc21	4.22%
CN1CCN(c2ccc(Nc3ncc4cc(C#N)c(=O)n(C5CCCC5)c4n3)cc2)CC1	-1.93%
CC(c1cc2ccccc2s1)N(O)C(N)=O (stereo not drawn)	-1.01%
COc1ccc(/C=C/C(=O)O)cc1	-1.52%
O=C(O)c1cc2occc2[nH]1	2.49%
OB1OCc2cc(F)ccc21	-2.28%
Cc1ccccc1OCC(O)CO (stereo not drawn)	21.7%
CC(C)=CCC[C@](C)(O)[C@H]1CC[C@]2(C)[C@@H]1[C@H](O)C[C@@H]1[C@@]3(C)CC[C@H](O[C@@H]4O[C@H](CO)[C@@H](O)[C@H](O)[C@H]4O[C@@H]4O[C@H](CO)[C@@H](O)[C@H](O)[C@H]4O)C(C)(C)[C@@H]3CC[C@]12C	5.37%
C[C@@]1(CO)[C@H](O)CC[C@@]2(C)[C@H]1CC[C@H]1C[C@@H]3C[C@@]12CC[C@]3(O)CO	-1.09%
C[C@H](Nc1cc(-c2cnn(C)c2)cc(Nc2cnccn2)n1)c1ccc(F)cc1	-7.55%
CC(C)(C)OC(=O)N[C@H]1CCCCC/C=C\[C@@H]2C[C@@]2(C(=O)NS(=O)(=O)C2CC2)NC(=O)[C@@H]2C[C@@H](OC(=O)N3Cc4cccc(F)c4C3)CN2C1=O	-4.41%
N#CC(c1ccc(Cl)cc1)c1c(Cl)cc(-n2ncc(=O)[nH]c2=O)cc1Cl (stereo not drawn)	3.89%
CN(C)Cc1cccc(N=C(c2ccccc2)c2c(O)[nH]c3cc(C(=O)N(C)C)ccc23)c1	-0.55%
CC(C)C(=O)OC[C@H]1O[C@@H](n2ccc(N)nc2=O)[C@](C)(F)[C@@H]1OC(=O)C(C)C	0.3%
OC[C@@H](O)[C@H]1O[C@@H]2O[C@H](C(Cl)(Cl)Cl)O[C@@H]2[C@H]1O	-5.77%
C#C[C@]1(O)CC[C@H]2[C@@H]3CCC4=CC(=O)CC[C@]4(C)[C@H]3CC[C@@]21C	0.47%
Cc1ccc(/C=N/NC(=O)c2ccccc2Oc2ccccc2)o1	3.7%
Cc1ccc(NC(=O)c2cccc(C(C)(C)C#N)c2)cc1Nc1ccc2ncn(C)c(=O)c2c1	-13.8%
O[C@@H]1CCCC[C@H]1N1CCC(c2ccccc2)CC1 (racemic)	-1.96%
CCCCc1oc2ccc(NS(C)(=O)=O)cc2c1C(=O)c1ccc(OCCCN(CCCC)CCCC)cc1	7.38%
NCCC(Oc1ccc(C(F)(F)F)cc1)c1ccccc1 (stereo not drawn)	-4.5%
Cc1cc([C@@H](C)Nc2ccccc2C(=O)O)c2nc(N3CCOCC3)cc(=O)n2c1	3.09%

Repeated from above (sample 1):
Structure (SMILES)	GFP-positive cells
COc1ccccc1OCC(O)CN1CCN(CC(=O)Nc2c(C)cccc2C)CC1 (stereo not drawn)	88.5%
CCOC(=O)CCC(=O)O[C@H]1[C@H](O[C@@H]2[C@@H](C)[C@H](O[C@H]3C[C@@](C)(OC)[C@@H](O)[C@H](C)O3)[C@@H](C)C(=O)O[C@H](CC)[C@@](C)(O)[C@H](O)[C@@H](C)C(=O)[C@H](C)C[C@@]2(C)O)O[C@H](C)C[C@@H]1N(C)C	106%
CC(=O)OCC(=O)[C@@]1(O)CC[C@H]2[C@@H]3CCC4=CC(=O)CC[C@]4(C)[C@H]3[C@@H](O)C[C@@]21C	92.8%
CC(=O)[C@H]1CC[C@H]2[C@@H]3C[C@H](C)C4=CC(=O)CC[C@]4(C)[C@H]3[C@@H](O)C[C@]12C	109%
CCCCC(=O)O[C@]1(C(=O)CO)CC[C@H]2[C@@H]3CCC4=CC(=O)CC[C@]4(C)[C@H]3[C@@H](O)C[C@@]21C	109%
